# Measured values pooled from the literature.
# Every numbered part comes from another study and shows a few of its results, in no order.

# Block 1
# Target: Histone acetyltransferase KAT6A, both winged helices, GST fusion (KAT6A, Homo sapiens, UniProt Q92794, residues 1-181)
# Method: protein binding microarray
# Form: double-stranded DNA, one strand shown
# Sample: in vitro
# Tested at: not given
# Setting: 8-mer, flanks averaged, mean of 2 arrays, mostly near background
# Baseline: not given
# Direction: higher = stronger binding
# Residues (chain): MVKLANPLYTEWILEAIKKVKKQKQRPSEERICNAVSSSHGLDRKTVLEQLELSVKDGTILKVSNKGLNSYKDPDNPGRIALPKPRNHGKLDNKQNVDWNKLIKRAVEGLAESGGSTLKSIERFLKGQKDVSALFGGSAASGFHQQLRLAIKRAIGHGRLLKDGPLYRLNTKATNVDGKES
Sequence,E-score
ACGCCCAT,0.0249
AGGGAACA,-0.0865
GAAGACTA,-0.0857
AAACAACC,-0.164
CAAGTGGA,-0.256
ATAACTTG,-0.175
CCGACCGG,0.218
CCGATACA,0.0403

# Block 2
# Target: Sal-like protein 4, full length isoform A (SALL4, Homo sapiens, UniProt Q9UJQ4, residues 1-1053)
# Chain of UniProt Q9UJQ4 (whole entry, looked up): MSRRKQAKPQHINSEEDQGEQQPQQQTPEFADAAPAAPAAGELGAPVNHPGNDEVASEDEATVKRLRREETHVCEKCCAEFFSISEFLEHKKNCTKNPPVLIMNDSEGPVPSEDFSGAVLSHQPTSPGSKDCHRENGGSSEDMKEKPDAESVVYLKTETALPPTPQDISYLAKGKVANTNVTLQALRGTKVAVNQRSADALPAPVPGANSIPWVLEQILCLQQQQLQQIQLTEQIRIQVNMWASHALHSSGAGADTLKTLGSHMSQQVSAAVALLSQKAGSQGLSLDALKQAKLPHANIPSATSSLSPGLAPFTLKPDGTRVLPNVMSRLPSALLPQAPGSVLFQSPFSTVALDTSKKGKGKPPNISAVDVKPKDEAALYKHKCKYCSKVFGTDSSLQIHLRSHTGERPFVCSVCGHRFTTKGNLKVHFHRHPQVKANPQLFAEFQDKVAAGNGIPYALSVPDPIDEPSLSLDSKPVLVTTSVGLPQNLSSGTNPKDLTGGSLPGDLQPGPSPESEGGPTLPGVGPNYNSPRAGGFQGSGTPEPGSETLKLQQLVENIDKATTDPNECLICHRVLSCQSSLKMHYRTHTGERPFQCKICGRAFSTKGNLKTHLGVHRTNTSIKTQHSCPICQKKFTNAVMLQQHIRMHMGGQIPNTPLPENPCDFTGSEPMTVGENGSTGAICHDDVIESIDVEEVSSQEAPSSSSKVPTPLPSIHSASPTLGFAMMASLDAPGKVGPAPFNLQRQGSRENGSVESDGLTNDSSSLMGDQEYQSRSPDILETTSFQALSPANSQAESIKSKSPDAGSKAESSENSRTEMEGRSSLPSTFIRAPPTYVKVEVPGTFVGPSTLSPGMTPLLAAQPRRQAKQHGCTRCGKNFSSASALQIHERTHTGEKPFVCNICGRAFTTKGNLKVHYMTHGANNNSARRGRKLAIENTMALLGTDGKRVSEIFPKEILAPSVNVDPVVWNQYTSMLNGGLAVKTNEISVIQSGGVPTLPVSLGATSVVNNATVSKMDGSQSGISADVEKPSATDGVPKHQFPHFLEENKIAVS
# Method: universal PBM
# Form: double-stranded DNA, one strand shown
# Sample: in vitro
# Tested at: 600 nM
# Setting: 8-mer, flanks averaged, mean of replicates
# Direction: higher = stronger binding
Sequence,E-score
CGAATTGA,0.0159
CCATCAAC,0.18
CGTGGTCA,-0.21
ACTGCCAA,-0.0695
GAATGAGC,0.124
AGGACACC,-0.221
CATCACGC,-0.139
CCAGGAAG,-0.202
AGGCCGTC,-0.332
CTTTGTGC,-0.0493

# Block 3
# Target: Interferon regulatory factor 5, full length, phosphomimetic (IRF5, Homo sapiens, UniProt Q13568-2, residues 1-514, K96S/S451D/S453D/S456D/S462D)
# Method: protein-binding microarray
# Form: double-stranded DNA, one strand shown
# Sample: in vitro
# Tested at: 250 nM
# Setting: 60-bp whole probe
# Added: salmon DNA 0.4 mg/ml
# Baseline: random background probes
# Direction: higher = stronger binding
# Shared flanks, not repeated: GCCTAGCAC … GTCTTGATTCGCTTGACGCTGCTG
Sequence,log fluorescence [z-score]
CACGAACTGAGTATCGAGACGTGCTAG,1.41
TTCTATGACTACATTGCAGCGTGCTAG,0.338
TCTGTTTTCTCCATGGAAGAGTGCTAG,1.62
GACAGTATCCTACTGCTGACGTGCTAG,0.174
TTCTCTCTGGCCCTCCTGAGGTGCTAG,-0.205
TGAGGACTGGGGTTTCGGTTAGTGCTA,6.25

# Mixed results
Molecule,target,assay,test system,conditions,how to read,measurement,value
"PhoQ, residues 284 288 289 292 302 303 SLGVVW","PhoP, residues 12 14 15 18 19 VHSCL (Escherichia coli, UniProt P23836)","Sort-seq, item: YFP reporter",E. coli,"PhoQ-PhoP variant library, added: 10 µM Mg2+","baseline: high Mg2+ state, higher = stronger signaling",fold induction,25.5

# Some of these lines once more (block 2):
Sequence,E-score
AGGACACC,-0.221
GAATGAGC,0.124
CTTTGTGC,-0.0493
CGTGGTCA,-0.21
